Measured values pooled from the literature.
Compare with care: the assays were run in different laboratories. ± gives the spread as reported.
Organism: Enterococcus faecalis

`CCCCCCn1cc[n+](CCCCCCCCOc2cc(OCCCCCCCC[n+]3ccn(CCCCCC)c3)cc(OCCCCCCCC[n+]3ccn(CCCCCC)c3)c2)c1.[Br-].[Br-].[Br-]` gave an MIC of 1 µM (OG1RF).
`CCCC/C=C/C(=O)N[C@@H](Cc1cc(F)cc(F)c1)C(=O)N[C@@H]1C(=O)N2CCC[C@H]2C(=O)N2CC[C@H](C)C[C@H]2C(=O)N[C@@H](C)C(=O)N2CCC[C@H]2C(=O)O[C@H]1C` has an MIC of under 0.02 ng/mL (microbial growth, broth dilution).
For `CCCCCC[N+](C)(C)CCCCOc1cc(OCCCC[N+](C)(C)CCCCCC)cc(OCCCC[N+](C)(C)CCCCCC)c1.[Br-].[Br-].[Br-]`, the MIC was 250 µM (OG1RF).
`O=Cc1c[nH]c2ccccc12` has an IC50 of over 50 µM (microbial growth, absorbance).
`CCCCCCCCCC[N+](C)(C)CCCCCCOc1cc(OCCCCCC[N+](C)(C)CCCCCCCCCC)cc(OCCCCCC[N+](C)(C)CCCCCCCCCC)c1.[Br-].[Br-].[Br-]` has an MIC of 1 µM (OG1RF).
`c1ccc(CC(c2c[nH]c3ccccc23)c2c[nH]c3ccccc23)cc1` has an IC50 of over 50 µM (microbial growth, absorbance).
With `CCCNC(=O)[C@H](Cc1ccc(O)cc1)NC(=O)[C@@H]1Cc2ccc(O)c(c2)-c2cc(ccc2O)C[C@@H](NC(=O)[C@H](CC(N)=O)NC(=O)[C@@H](Cc2ccc(O)cc2)NC(=O)[C@@H](CC(C)C)NC)C(=O)N[C@H](c2ccc(O)cc2)C(=O)N1` the IC50 was over 40 µM (bacterial growth).
The MIC of `CCCC/C=C/C(=O)N[C@@H](Cc1cc(F)cc(F)c1)C(=O)N[C@@H]1C(=O)N2CCC[C@H]2C(=O)N(C)[C@@H](C)C(=O)N[C@@H](C)C(=O)N2CCC[C@H]2C(=O)O[C@H]1C` is reported as 0.76 ng/mL (microbial growth, broth dilution).
The MIC of `CN[C@H](CC(C)C)C(=O)N[C@H]1C(=O)N[C@@H](CC(N)=O)C(=O)N[C@H]2C(=O)N[C@H]3C(=O)N[C@H](C(=O)N[C@H](C(=O)O)c4cc(O)cc(O)c4-c4cc3ccc4O)[C@H](O)c3ccc(c(Cl)c3)Oc3cc2cc(c3O[C@@H]2O[C@H](CO)[C@@H](O)[C@H](O)[C@H]2O[C@H]2C[C@](C)(NCc3ccc(-c4ccc(Cl)cc4)cc3)[C@H](O)[C@H](C)O2)Oc2ccc(cc2Cl)[C@H]1O` is reported as 5000 ng/mL (VanA VRE BM_4166; no LTA, added: Mg2+ 100 µg/mL).
`CC(=O)C(C)(c1c[nH]c2ccccc12)c1c[nH]c2ccccc12` has an IC50 of over 50 µM (microbial growth, absorbance).
With `CCCNC(=O)[C@@H]1Cc2ccc(cc2)Oc2cc(ccc2O)[C@@H](NC(=O)[C@H](NC(=O)[C@H](CC(N)=O)NC(=O)[C@@H](Cc2ccc(O)cc2)NC(=O)[C@@H](CC(C)C)NC)c2ccccc2)C(=O)N[C@@H](Cc2ccccc2)C(=O)N1` the IC50 was 17 ± 3 µM (bacterial growth).
For `CCCCCCCCCC[N+](C)(C)CCCCCCCCOc1cc(OCCCCCCCC[N+](C)(C)CCCCCCCCCC)cc(OCCCCCCCC[N+](C)(C)CCCCCCCCCC)c1.[Br-].[Br-].[Br-]`, the MIC was 8 µM (OG1RF).
The IC50 of `c1ccc2c([C+](c3c[nH]c4ccccc34)c3c[nH]c4ccccc34)c[nH]c2c1` is reported as over 50 µM (microbial growth, absorbance).
For `CCCCCCCC[N+](C)(C)CCCCOc1cc(OCCCC[N+](C)(C)CCCCCCCC)cc(OCCCC[N+](C)(C)CCCCCCCC)c1.[Br-].[Br-].[Br-]`, the MIC was 2 µM (OG1RF).
For `CCCNC(=O)[C@H](Cc1ccc(O)cc1)NC(=O)[C@H]1NC(=O)[C@@H](c2ccc(O)cc2)NC(=O)[C@H](NC(=O)[C@H](CC(N)=O)NC(=O)[C@@H](Cc2ccc(O)cc2)NC(=O)[C@@H](CC(C)C)NC)c2ccc(O)c(c2)Oc2ccc1cc2`, the IC50 was over 40 µM (bacterial growth).

Repeated from above:
The MIC of `CN[C@H](CC(C)C)C(=O)N[C@H]1C(=O)N[C@@H](CC(N)=O)C(=O)N[C@H]2C(=O)N[C@H]3C(=O)N[C@H](C(=O)N[C@H](C(=O)O)c4cc(O)cc(O)c4-c4cc3ccc4O)[C@H](O)c3ccc(c(Cl)c3)Oc3cc2cc(c3O[C@@H]2O[C@H](CO)[C@@H](O)[C@H](O)[C@H]2O[C@H]2C[C@](C)(NCc3ccc(-c4ccc(Cl)cc4)cc3)[C@H](O)[C@H](C)O2)Oc2ccc(cc2Cl)[C@H]1O` is reported as 5000 ng/mL (VanA VRE BM_4166; no LTA, added: Mg2+ 100 µg/mL).
